Results pooled from the literature.
Every numbered part comes from another study and shows a few of its results, in no order. Several values in a cell are separate wells, animals, samples, runs or records.
Sequence of UniProt P28335 (whole entry, looked up): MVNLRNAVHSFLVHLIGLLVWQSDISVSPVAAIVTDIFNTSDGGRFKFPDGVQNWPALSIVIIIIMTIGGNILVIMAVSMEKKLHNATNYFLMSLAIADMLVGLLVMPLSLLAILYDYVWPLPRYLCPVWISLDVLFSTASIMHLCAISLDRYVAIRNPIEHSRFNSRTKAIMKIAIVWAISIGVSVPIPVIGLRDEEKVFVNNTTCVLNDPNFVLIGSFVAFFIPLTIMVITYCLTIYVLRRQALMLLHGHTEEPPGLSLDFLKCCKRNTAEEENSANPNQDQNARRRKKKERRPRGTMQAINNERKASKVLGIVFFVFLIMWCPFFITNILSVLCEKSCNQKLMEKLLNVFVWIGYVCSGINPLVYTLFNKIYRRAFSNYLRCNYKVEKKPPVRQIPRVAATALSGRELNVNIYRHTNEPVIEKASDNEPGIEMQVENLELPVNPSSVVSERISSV

Series 1 — technique: phase 2a trial
SMILES: CC(C)n1cnc(-c2ccc(F)cc2)c1-c1ncc(C(=O)Nc2ccc(N3CCN(C)CC3)cc2)[nH]1
It gave 0% for “patients with TEAE” (patients with idiopathic pulmonary fibrosis; 30 mg once daily, eye swelling, grade 5).
It gave 0% for “patients with TEAE” (patients with idiopathic pulmonary fibrosis; 60 mg once daily, endocrine disorders SOC, grade 2).
The “patients with TEAE” was 0% (idiopathic pulmonary fibrosis patients; oral, 30 mg once daily, musculoskeletal disorders, grade 3).
For idiopathic pulmonary fibrosis patients; oral, 60 mg once daily, LDL increased, grade 4: “patients with TEAE” read 0%.
idiopathic pulmonary fibrosis patients; oral, 30 mg once daily, blood/lymphatic disorders, grade 5 — “patients with TEAE”: 0%.
It gave 0% for “patients with TEAE” (idiopathic pulmonary fibrosis patients; oral, 30 mg once daily, musculoskeletal disorders, grade 5).
idiopathic pulmonary fibrosis patients; oral, dose not given, GLDH increased, grade 5, all arms — “patients with TEAE”: 0%.
idiopathic pulmonary fibrosis patients; oral, 30 mg once daily, ESR increased, grade 3 — “patients with TEAE”: 0%.

Series 2 — organism: Cryptosporidium parvum; technique: time-kill; cells: HCT-8; strain: nanoluciferase-expressing; reference: DMSO control
Compound: CN(C(=O)c1ccn2ncc(-c3ccc(C(N)=O)cc3)c2c1)c1ccc(C#N)cn1
It gave 105% and 108% for luminescence remaining (2.222 µM, 8 h).
For 0.00102 µM, 4 h: luminescence remaining read 83.2% and 73.2%.
It gave 10.4% and 11.7% for luminescence remaining (0.7407 µM, 48 h).
It gave 116% and 131% for luminescence remaining (2.222 µM, 4 h).
0.00914 µM, 0 h — luminescence remaining: 91.4% and 98% and 90.3% and 103% and 90.1% and 97.4% and 91.2% and 99.4%.
6.667 µM, 4 h — luminescence remaining: 107% and 113%.
The luminescence remaining was 92.1% and 114% (0.00914 µM, 24 h).
For 0.00914 µM, 72 h: luminescence remaining read 99.5% and 77.9%.

Series 3 — cell line: mouse MPNST tumor cells; technique: high-content immunofluorescence imaging; refers to: nuclear SOX9; tested at: 10 µM; time: 12 h; notes: mean of 2 replicates; reference: DMSO control; reading: higher = more nuclear SOX9
Under “nuclear SOX9 intensity”, `CC1CC(C)(C)N(C(=O)CN2C(=O)c3ccccc3C2=O)c2ccccc21` (stereo not shown) is recorded as 96.7 % of DMSO.
`Cc1c(O)c(=O)n(-c2ccccc2)n1C` — result for “nuclear SOX9 intensity”: 101 % of DMSO.
For `O=C(O)CCNc1cc(N2CCc3ccccc3CC2)nc(-c2cccnc2)n1`, “nuclear SOX9 intensity” read 100 % of DMSO.
For `Cc1nnc(C(C)C)n1C1C[C@H]2CC[C@@H](C1)N2CC[C@H](NC(=O)C1CCC(F)(F)CC1)c1ccccc1` (stereo in doubt), “nuclear SOX9 intensity” read 83.7 % of DMSO and 91.7 % of DMSO.
Under “nuclear SOX9 intensity”, `CC(C)c1cc(N2CC[C@@H](N)C2)nc(N)n1` is recorded as 112 % of DMSO.
For `O=C(OC(C(F)(F)F)C(F)(F)F)N1CCC(C(O)(c2ccc3c(c2)OCO3)c2ccc3c(c2)OCO3)CC1`, “nuclear SOX9 intensity” read 122 % of DMSO.
`CC(C)(N)C(=O)N[C@H](COCc1ccccc1)C(=O)N1CCC2(CC1)CN(S(C)(=O)=O)c1ccccc12`: “nuclear SOX9 intensity” 106 % of DMSO.
`CC(C)c1c(C(=O)Nc2ccccc2)c(-c2ccccc2)c(-c2ccc(F)cc2)n1CC[C@@H](O)C[C@@H](O)CC(=O)O`: “nuclear SOX9 intensity” 103 % of DMSO and 97.7 % of DMSO.

Single results of other studies
`CO[C@H]1CC[C@H](CNc2ccc(S(=O)(=O)NC(=O)c3ccc(N4CCN(CC5=C(c6ccc(Cl)cc6)CC(C)(C)CC5)CC4)cc3Oc3cnc4[nH]ccc4c3)cc2[N+](=O)[O-])CC1` gave an inhibition of -4.69% (5-hydroxytryptamine receptor 2C (HTR2C, Homo sapiens, UniProt P28335); ligand displacement; 10 µM).

Excerpt of the above (series 1):
idiopathic pulmonary fibrosis patients; oral, dose not given, GLDH increased, grade 5, all arms — “patients with TEAE”: 0%.
idiopathic pulmonary fibrosis patients; oral, 30 mg once daily, ESR increased, grade 3 — “patients with TEAE”: 0%.
